{"data": "Published values gathered from unrelated publications", "note": "Numbered parts are unrelated; each lists some results of a single study. Substitutions count along the parent as printed."}
{"data": "Sample 1", "target": "CCND3, cyclin fold, Cln2 fusion (human)", "technique": "yeast growth competition, sequencing", "medium": "yeast", "setting": "weak parent motif", "reference": "not given", "direction": "higher = stronger binding", "starting sequence": "CDT1 docking peptide (human); PPARRRLRLSVDE; partner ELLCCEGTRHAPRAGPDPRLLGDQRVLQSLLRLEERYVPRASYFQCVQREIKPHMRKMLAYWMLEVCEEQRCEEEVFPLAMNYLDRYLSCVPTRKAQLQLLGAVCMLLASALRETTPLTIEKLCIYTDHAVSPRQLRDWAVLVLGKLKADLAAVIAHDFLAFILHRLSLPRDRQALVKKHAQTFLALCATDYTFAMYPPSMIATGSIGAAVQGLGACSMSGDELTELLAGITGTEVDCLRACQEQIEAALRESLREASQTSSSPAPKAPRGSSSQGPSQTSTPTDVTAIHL"}
{"Change": "R8A", "normalised enrichment score": 0.0764}
{"Change": "L9F", "normalised enrichment score": -0.208}
{"Change": "P2A", "normalised enrichment score": 0.147}
{"Change": "V11A", "normalised enrichment score": 0.124}
{"Change": "R5A L7A", "normalised enrichment score": 0.138}
{"Change": "L7A", "normalised enrichment score": 0.207}
{"Change": "R5A", "normalised enrichment score": 0.0341}
{"Change": "R5K L9F", "normalised enrichment score": -0.332}
{"Change": "L9A", "normalised enrichment score": 0.119}
{"data": "Sample 2", "target": "ABI1, truncated, D143A, DHFR fusion (Arabidopsis thaliana)", "technique": "DHFR PCA, deep sequencing", "medium": "yeast", "setting": "methotrexate growth selection, single substitutions", "with": "(+)-ABA 2500 µM", "reference": "wild-type fitted maximum", "direction": "higher = stronger binding", "starting sequence": "PYL1, truncated, DHFR fusion (Arabidopsis thaliana); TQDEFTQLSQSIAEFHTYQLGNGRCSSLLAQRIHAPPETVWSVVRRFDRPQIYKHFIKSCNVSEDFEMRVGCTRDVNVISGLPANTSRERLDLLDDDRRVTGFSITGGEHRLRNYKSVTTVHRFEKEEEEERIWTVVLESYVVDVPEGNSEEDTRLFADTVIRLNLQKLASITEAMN"}
{"Change": "F157H", "relative binding score [%]": 53.2}
{"Change": "V161M", "relative binding score [%]": 91.8}
{"Change": "I33H", "relative binding score [%]": -14.4}
{"Change": "R88V", "relative binding score [%]": 97.3}
{"Change": "Y18E", "relative binding score [%]": 99.2}
{"Change": "E131Q", "relative binding score [%]": 105}
{"Change": "Q19I", "relative binding score [%]": 94.2}
{"Change": "C60T", "relative binding score [%]": 92}
{"Change": "I12G", "relative binding score [%]": 74.1}
{"Change": "Q167P", "relative binding score [%]": 6.23}
{"Change": "T17Q", "relative binding score [%]": 102}
{"Change": "R69D", "relative binding score [%]": 97.1}
{"Change": "V118D", "relative binding score [%]": 42.8}
{"Change": "P36N", "relative binding score [%]": 96.4}
{"Change": "D95N", "relative binding score [%]": 94.2}
{"Change": "K58L", "relative binding score [%]": 90.2}
{"Change": "I105D", "relative binding score [%]": 8.21}
{"Change": "H16T", "relative binding score [%]": 41}
{"Change": "N149V", "relative binding score [%]": 76.6}
{"Change": "S87A", "relative binding score [%]": 91.1}
{"data": "Sample 3", "target": "RNA binding protein fox-1 homolog 2, RRM domain, GST-SBP tag (RBFOX2, Homo sapiens, UniProt O43251-10, residues 100-194)", "technique": "RNA Bind-n-Seq", "form": "RNA", "medium": "in vitro", "tested at": "365 nM", "setting": "natural RNA segment, single round, ends assumed", "reference": "no-protein control", "direction": "higher = stronger binding", "Residues (chain)": "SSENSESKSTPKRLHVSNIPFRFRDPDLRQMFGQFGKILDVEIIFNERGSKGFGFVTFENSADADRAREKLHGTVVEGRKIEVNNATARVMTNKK"}
{"Strand": "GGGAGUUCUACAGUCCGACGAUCUUUAAAAUUCCAGGCCGGGCGUGGUGGCUCACGACUGUAAUCCCAGAACUUUGGGAGGCCAAGGCAGGUGGAUCACUUGAGGUCAGGAGUUCGAGACUAGCCUGGCCAACUGGAAUUCUCGGGUGCCAA", "RBNS enrichment (R)": 0.711}
{"Strand": "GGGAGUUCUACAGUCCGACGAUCUUCUAGAAUUAUAUGCUAAAUGCAUAUUUUAUGAUUUGCUGUAUUAACUGAUGAUAAAACUAAUGGCAGAAAACAAAUUGAACAAUUUCUAUGUAAUGUACAGAUACUAGUGGAAUUCUCGGGUGCCAA", "RBNS enrichment (R)": 0.695}
{"Strand": "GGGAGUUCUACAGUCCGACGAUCAGAAUGAGUAAGUUAACAGCCAGAGACAGACACUGUGCAGGCAUUGCAAAUAGAUGGAAUUACAGCAAAAUGUGCUCAAUGUAUUUGCCUGCUUACAACACUGGGAGAUGUGGAAUUCUCGGGUGCCAA", "RBNS enrichment (R)": 0.422}
{"Strand": "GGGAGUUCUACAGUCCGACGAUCGUCCAUCGGGCUGGCCCCAGCCCAUCUGCUGGCAUCAGUACCUGGUGUUGGGACAGCAGGAUAGGGUUCUAAAGGUGGUUUUCUAUCCAAACGACCAAAAAACCAACAGUUGGAAUUCUCGGGUGCCAA", "RBNS enrichment (R)": 0.283}
{"Strand": "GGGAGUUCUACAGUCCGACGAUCUGGUGGAAACGUGGGCUUUCUCCAAACCAAGGCCUGAGUUUCCUGUAAGGGUCCUCUGUUUUUGAUUCACCCAAAAGUCUGCAAACCCCCAGCAUCUCUGCUCUGGCCAGUGGAAUUCUCGGGUGCCAA", "RBNS enrichment (R)": 0.388}
{"Strand": "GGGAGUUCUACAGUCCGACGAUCUGUUGGGUCACCGGCUGGACCUGCUGCAGCCUGCAGAGCCACAGUCAGCCUGCCCACAUGCCACCGAGCAAACGCAUCUUGCUUUUCACAUCUCUCCUCCUACAGCCUUAUGGAAUUCUCGGGUGCCAA", "RBNS enrichment (R)": 0.57}
{"Strand": "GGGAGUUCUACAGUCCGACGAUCUGGCCGGGAGAGACCCAGGGAGGUUCUGGAGGUUCCUUUCUGUCUCCUGGCCCCACCAGGGAUUUCCCCAUUUCUGUUUGCUGCCUGAAAGCAGGAUGAGGAAGGCCAAGUGGAAUUCUCGGGUGCCAA", "RBNS enrichment (R)": 1.06}
{"Strand": "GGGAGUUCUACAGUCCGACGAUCUUUUUUAAUUGUUCUUUAUGUUUAAAACUUGCAGAGAUAGAAGCAGGCUUCUGAGGUACGGGGUCUUGCUGUGUGCUCUCUCUCCGUGCUGCCGUUAAGCCAAAACAAAAUGGAAUUCUCGGGUGCCAA", "RBNS enrichment (R)": 0.726}
{"Strand": "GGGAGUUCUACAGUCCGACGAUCCACUAAAAUUUCUCUGUGUUGUUACAGUCUUAGAGGUUGCAGUACUAUAUUGUAAGCUUUGGUGUUUGUUUAAUUAGCAAUAGGGAUGGUAGGAUUCAAAUGUGUGUCAUUGGAAUUCUCGGGUGCCAA", "RBNS enrichment (R)": 0.361}
{"Strand": "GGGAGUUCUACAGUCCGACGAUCUUUAAUGAAGAAAGUGGAAAACAAGGAAGUCAAAGCAAGGAAACUAUGUAACAUGUAGGAAGUAGGAAGUAAAUUAUAGUGAUGUAAUCUUGAAUUGUAACUGUUCUUGAUGGAAUUCUCGGGUGCCAA", "RBNS enrichment (R)": 0.955}
{"Strand": "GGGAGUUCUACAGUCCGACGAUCCCUAAUUGAAGAGUGGCAGAGGCUACUACAAAAAGCAACCUUUUCAUUUUCACUAAGAGUUUAAAAGCUAUUGUAUUAUUAAAAAGUCUUUACAAUGCUUGUUUCAAAGAUGGAAUUCUCGGGUGCCAA", "RBNS enrichment (R)": 0.403}
{"Strand": "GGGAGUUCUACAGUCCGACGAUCGCCUUGCUGGGUGGAGCCUCUGUGUGACUCCAUACUCCUCCCACCACAACACUCAUCUGUCAAACACCAAGCACUCUCAGCCUCCCCGCCUUCAGCUGUCAGCUUUCUGGUGGAAUUCUCGGGUGCCAA", "RBNS enrichment (R)": 0.6}
{"data": "Sample 4", "target": "UBE2J1 UBC core domain (UniProt Q9Y385)", "technique": "yeast two-hybrid", "medium": "yeast", "setting": "mostly zero background", "reference": "not given", "direction": "higher = stronger interaction", "B1": "TRIM2 RING domain (UniProt Q9C040); chain VRQIDKQFLICSICLERYKNPKVLPCLHTFCERCLQNYIPAHSLTLSCPVCRQTSILPEKGV", "B2": "RNF7 RING domain (UniProt Q9UBF6); chain AICRVQVMDACLRCQAENKQEDCVVVWGECNHSFHNCCMSLWVKQNNRCPLCQQDWVVQRIGK", "B3": "NHLRC1 RING domain (UniProt Q6VVB1); chain MREAEISLLECKVCFEKFGHRQQRRPRNLSCGHVVCLACVAALAHPRTLALECPFCRRACRGCDTSD", "B4": "TRIM47 RING domain (UniProt Q96LD4); chain MDGSGPFSCPICLEPLREPVTLPCGHNFCLACLGALWPHRGASGAGGPGGAARCPLCQEPFPDGLQLR", "B5": "RMND5B RING domain (UniProt Q96G75); chain MKCWYHSVFACPILRQQTSDSNPPIKLICGHVISRDALNKLINGGKLKCPYCPMEQNPADGK", "B6": "RNF32 RING domain (UniProt Q9H0A6); chain VQALRRETHECSICLAPLSAAGGQRVGAGRRSREMALLSCSHVFHHACLLALEEFSVGDRPPFHACPLCRSCYQKKILEC", "B7": "RNF10 RING domain (UniProt Q8N5U6); chain VRICSHEVPSCPICLYPPTAAKITRCGHIFCWACILHYLSLSEKTWSKCPICYSSVHKKDLKS", "B8": "RNF130 RING domain (UniProt Q86XS8); chain DKETDPDFDHCAVCIESYKQNDVVRILPCKHVFHKSCVDPWLSEHCTCPMCKLNILKALGIV", "B9": "TRIM74 RING domain (UniProt Q86UV6); chain SLLELEDWLQCPICLEVFKESLMLQCGHSYCKGCLVSLSYHLDTKVRCPMCWQVVDGSSSLP", "B10": "TRIM32 RING domain (UniProt Q13049); chain NLDALREVLECPICMESFTEEQLRPKLLHCGHTICRQCLEKLLASSINGVRCPFCSKITRITSLTQ", "B11": "TRIM68 RING domain (UniProt Q6AZZ1); chain LVEAIVEEVACPICMTFLREPMSIDCGHSFCHSCLSGLWEIPGESQNWGYTCPLCRAPVQPRNLRP", "Residues (chain)": "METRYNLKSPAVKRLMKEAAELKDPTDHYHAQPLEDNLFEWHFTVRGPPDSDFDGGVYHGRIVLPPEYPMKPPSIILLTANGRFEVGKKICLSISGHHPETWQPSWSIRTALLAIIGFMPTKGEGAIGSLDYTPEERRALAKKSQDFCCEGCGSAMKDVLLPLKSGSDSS"}
{"Sequence": "B1 (TRIM2 RING domain)", "lacZ reporter activity": 0}
{"Sequence": "B2 (RNF7 RING domain)", "lacZ reporter activity": 0}
{"Sequence": "B3 (NHLRC1 RING domain)", "lacZ reporter activity": 0}
{"Sequence": "B4 (TRIM47 RING domain)", "lacZ reporter activity": 0}
{"Sequence": "B5 (RMND5B RING domain)", "lacZ reporter activity": 0}
{"Sequence": "B6 (RNF32 RING domain)", "lacZ reporter activity": 0}
{"Sequence": "B7 (RNF10 RING domain)", "lacZ reporter activity": 0}
{"Sequence": "MEEMEEELKCPVCGSFYREPIILPCSHNLCQACARNILVQTPESESPQSHRAAGSGVSDY (TRIM9 RING domain (UniProt Q9C026))", "lacZ reporter activity": 0}
{"Sequence": "B8 (RNF130 RING domain)", "lacZ reporter activity": 0}
{"Sequence": "B9 (TRIM74 RING domain)", "lacZ reporter activity": 0}
{"Sequence": "B10 (TRIM32 RING domain)", "lacZ reporter activity": 0}
{"Sequence": "B11 (TRIM68 RING domain)", "lacZ reporter activity": 0}
{"note": "A few entries again (sample 4):"}
{"Sequence": "B7 (RNF10 RING domain)", "lacZ reporter activity": 0}
{"Sequence": "B3 (NHLRC1 RING domain)", "lacZ reporter activity": 0}
{"Sequence": "B6 (RNF32 RING domain)", "lacZ reporter activity": 0}
{"Sequence": "B5 (RMND5B RING domain)", "lacZ reporter activity": 0}
{"Sequence": "B2 (RNF7 RING domain)", "lacZ reporter activity": 0}
{"Sequence": "MEEMEEELKCPVCGSFYREPIILPCSHNLCQACARNILVQTPESESPQSHRAAGSGVSDY (TRIM9 RING domain (UniProt Q9C026))", "lacZ reporter activity": 0}
{"Sequence": "B11 (TRIM68 RING domain)", "lacZ reporter activity": 0}
